Measurements collected from several papers.
Compare with care: the assays were run in different laboratories. ± marks the error that the study gave.

Compound | cell line | test | conditions | IC50
O=[N+]([O-])c1ccc(C=NNC(=S)Nc2ccccc2)o1 | IMR-90 | cell growth or viability, resazurin | – | > 100000 nM
CCN(CC)CCCC(C)N(CCCN(C)CCCNC(=O)O[C@H]1CC[C@@]2(C)C(=CC[C@H]3[C@@H]4CC[C@H]([C@H](C)CCCC(C)C)[C@@]4(C)CC[C@@H]32)C1)c1c2ccc(Cl)cc2nc2ccc(OC)cc12 (stereo partly drawn) | ARPE-19 | cytotoxicity, CCK-8 | 48 h | > 100000 nM
C[C@H](c1ccccc1)N1C(=O)C2=Nc3ccc(Cl)cc3CN2C1=S | CCRF-CEM | resazurin | 72 h | 380 ± 40 nM
COc1ccc(CC[C@H]2OC(=O)[C@@H]3CCCCN3C(=O)C(=O)C(C)(C)COC(=O)C=CCCN(C)C(=O)[C@@H](CC(C)C)NC(=O)[C@@H](Cc3ccccc3)N(C)C(=O)[C@@H]3CCCN3C(=O)[C@H](CC(C)C)N(C)C(=O)CCC(=O)Nc3cccc2c3)cc1OC | HUVEC | thymidine uptake, inhibitor | – | > 20000 nM
Cc1ccc2c(Cl)cc(Cl)c([O-])c2n1.Cc1ccc2c(Cl)cc(Cl)c([O-])c2n1.[Co+2].c1ccc2nc3c4cccnc4c4ncccc4c3nc2c1 | HL-7702 normal hepatocytes | cell viability, MTT | 48 h | 70300 ± 1110 nM
CSCCCN1C(=O)C2=Nc3ccccc3CN2C1=S | CCRF-CEM | cell viability, resazurin | 72 h | inactive
COc1ccccc1/C=C1\C(=O)Nc2ccc(Nc3nc(C)nc4ccccc34)cc21 | H22 | cell growth or viability, MTT | – | 1720 nM
Cc1ccc([N+](=O)[O-])cc1S(=O)(=O)N(C)/N=C/c1cnc2ccc(Br)cn12 | SF-268 | MTS | NCI60 panel | 2230 nM
O=C1NCCC12CCN(c1c(Cl)cncc1-c1ccc(N3CCOCC3)cc1)CC2 | 7dF3 | WNT reporter gene, inhibitor | – | 30 ± 17 nM
N#Cc1c(N)nc2c(c1-c1ccc(CO)o1)CCc1cc(O)ccc1-2 | HuT78 | cell growth or viability, ATP luminescence | – | 2800 nM
O=C(CCCCCONC(=O)c1nc(-c2ccc(Cl)cc2)cs1)NO | neonatal foreskin fibroblasts | cytotoxicity, sulforhodamine B | 72 h | 1480 nM
C[C@H](c1ccccc1)N1C(=O)C2=Nc3ccc(F)cc3CN2C1=S | CCRF-CEM | resazurin | 72 h | 520 ± 40 nM
COc1ccc(CC[C@H]2OC(=O)[C@@H]3CCCCN3C(=O)C(=O)C(C)(C)COC(=O)C=CCCN(C)C(=O)[C@@H](CC(C)C)N(C)C(=O)[C@H]3CCCN3C(=O)[C@H](Cc3ccccc3)N(C)C(=O)[C@H](Cc3ccccc3)NC(=O)CCC(=O)Nc3cccc2c3)cc1OC | HUVEC | thymidine uptake, inhibitor | – | 1300 ± 300 nM
CC1(C)CCC(CN2CCN(c3ccc(C(=O)NS(=O)(=O)c4ccc(NCC5CCOCC5)c([N+](=O)[O-])c4)c(Oc4cnc5[nH]ccc5c4)c3)CC2)=C(c2ccc(Cl)cc2)C1 | RS4-11 | sub-G0/G1 accumulation, PI staining, FACS | 24 h | 5.2 ± 1.6 nM
COc1ccc(CC[C@H]2OC(=O)[C@@H]3CCCCN3C(=O)C(=O)C(C)(C)COC(=O)C=CCCN(C)C(=O)[C@H](Cc3cccc4ccccc34)NC(=O)[C@@H](Cc3ccccc3)N(C)C(=O)[C@@H]3CCCN3C(=O)[C@H](CC(C)C)N(C)C(=O)CCC(=O)Nc3cccc2c3)cc1OC | HUVEC | thymidine uptake, inhibitor | – | > 20000 nM
Cc1nc(N(C)c2ccc3c(c2)/C(=C/c2ccccc2C)C(=O)N3C)c2ccccc2n1 | H22 | cell growth or viability, MTT | – | 3060 nM
CCCC[N+]1=c2cc3c4cc2[O][Mn-2]1(=[C]=O)(=[C]=O)(=[C]=O)[n+]1ccc(cc1)C(=O)Nc1ccccc1NC(=O)c1cc[n+](cc1)[Mn-2](=[C]=O)(=[C]=O)(=[C]=O)([O]3)[N+]=4CCCC | HEK293 | cell growth, MTT | 48 h, LED photolysed 1 h | > 50000 nM
CCOc1cncc(-c2ccc(NC(=O)C3(c4ccnc(NS(=O)(=O)C5CC5)n4)CCOCC3)nc2)n1 | OCI-AML2 | cell proliferation, CellTiter-Glo | 72 h | 62 nM
COc1ccc(CC[C@H]2OC(=O)[C@@H]3CCCCN3C(=O)C(=O)C(C)(C)COC(=O)C=CCCN(C)C(=O)[C@H](CO)N(C)C(=O)[C@H]3CCCN3C(=O)[C@H](CO)N(C)C(=O)[C@H](Cc3ccccc3)NC(=O)CCC(=O)Nc3cccc2c3)cc1OC | HUVEC | thymidine uptake, inhibitor | – | 12.8 ± 3.1 nM
NC(=O)c1ccc(-c2ccccc2Cl)c2c3c([nH]c12)CC[C@@H](N)C3 | HGC-27 | cell growth or viability | – | 19.9 nM
CC[C@H](C)[C@H](NC(=O)[C@H](CC(=O)O)NC(=O)[C@H](Cc1ccccc1)NC(=O)[C@H]1CCC[C@@H]1NC(=O)CN)C(=O)N[C@H](CC(=O)N[C@@H](CCCCN)C(=O)N[C@@H](CCCCN)C(=O)N[C@H]1CCC[C@@H]1C(=O)N[C@@H](C)C(=O)N[C@@H](CCC(=O)O)C(=O)N[C@@H](CO)C(=O)N[C@H](CC(N)=O)Cc1ccccc1)[C@@H](C)CC | HUVEC | cytotoxicity | – | 101 µg/mL

Compound | cell line | test | conditions | IC50
COc1ccc(C[C@@H]2NC(=O)[C@H](c3ccccc3)NC(=O)CCC(=O)Nc3cccc(c3)[C@@H](CCc3ccc(OC)c(OC)c3)OC(=O)[C@@H]3CCCCN3C(=O)C(=O)C(C)(C)COC(=O)C=CCCN(C)C(=O)[C@H](CC(C)C)N(C)C(=O)[C@H]3CCCN3C2=O)cc1 | HUVEC | thymidine uptake, inhibitor | – | 33 ± 9 nM
[Co+2].[O-]c1c(I)cc(I)c2cccnc12.[O-]c1c(I)cc(I)c2cccnc12.c1cnc2c(c1)ccc1cccnc12 | HL-7702 normal hepatocytes | cell viability, MTT | 48 h | 55000 ± 1740 nM
CC(C)c1ccc(N(C)c2ccc3c(c2)OCC[C@H]3CNc2cnccc2C(=O)O)cc1 | J82 | cell growth or viability, ATP luminescence | 7 days | ≥ 10000 nM
COC[C@H](C)N1C(=O)C2=Nc3ccccc3CN2C1=S | CCRF-CEM | resazurin | 72 h | 11200 ± 3540 nM
NCCOc1cc(NC(=O)c2cc(OCc3cn(Cc4ccc(C(=O)O)cc4)nn3)cc(C(=O)Nc3cc(OCCN)c4ccccc4n3)n2)nc2ccccc12 | U2OS | cell growth or viability, ATP luminescence | 72 h | > 40000 nM
CC(C)c1ccc2oc3nc(N)c(C(=O)O)cc3c(=O)c2c1 | ARPE-19 | cytotoxicity, CCK-8 | 48 h | > 100000 nM
CNS(=O)(=O)Nc1nccc(Cc2c(C)c3ccc(Oc4ncccc4F)cc3oc2=O)c1F | C32 | cell viability | 7 days | 4.03 nM
CC(=O)[O][Pt]([NH2])([NH2])([Cl])([Cl])[O]C(=O)CCCc1ccccc1 | BCPAP | cell growth or viability, MTT | 72 h | 2250 nM
CCCC[C@H]1C(=O)N(C)CCC=CC(=O)OCC(C)(C)C(=O)C(=O)N2CCCC[C@H]2C(=O)O[C@H](CCc2ccc(OC)c(OC)c2)c2cccc(c2)NC(=O)CCC(=O)N[C@@H](Cc2ccccc2)C(=O)N(C)[C@@H](Cc2ccccc2)C(=O)N2CCC[C@@H]2C(=O)N1C | HUVEC | thymidine uptake, inhibitor | – | > 20000 nM
CC[C@H](NC(=O)[C@H](CCCCN)NC(=O)[C@H]1CCC[C@@H]1NC(=O)[C@@H](NC(=O)[C@H](CCCCN)NC(=O)[C@H](CCCCN)NC(=O)C[C@@H](NC(=O)[C@@H](NC(=O)[C@H](CCCCN)NC(=O)[C@H](Cc1ccccc1)NC(=O)[C@H]1CCC[C@@H]1NC(=O)CN)[C@@H](C)CC)[C@@H](C)CC)[C@@H](C)CC)C(=O)N[C@@H](Cc1ccccc1)C(N)=O | HUVEC | cytotoxicity | – | 13.7 µg/mL
CN1C(=O)/C(=N\c2ccc(Cl)cc2Br)c2ccccc21 | L02 | cell growth or viability, MTT | 48 h | 96400 nM
Cc1nc(=S)[nH]c(C)c1/N=N/c1nnc(S)[nH]1 | Vero | MTT | 72 h | 16.1 ± 1.86 µg/mL
Cn1ncc(-c2ccc3c(=O)[nH]nc(CN)c3c2)c1-c1c(F)c(Cl)cc(OC2CC2)c1C#N | SF-268 | cell viability, inhibitor, CellTiter-Glo | 120 h, baseline-subtracted | 70 nM
Cc1ccc2c(Cl)cc(Cl)c([O-])c2n1.Cc1ccc2c(Cl)cc(Cl)c([O-])c2n1.[Co+2].c1ccc(-c2ccccn2)nc1 | HL-7702 normal hepatocytes | cell viability, MTT | 48 h | 68000 ± 930 nM
Cc1cnc2nc1Nc1cccc(c1)COC/C=C/COCc1cc(ccc1OCCN1CCOCC1)N2 | HEL 92.1.7 JAK2 V617F | cell growth, CCK-8 | – | 1880 nM
O=C(CCCCCONC(=O)c1nc(-c2ccc(C(F)(F)F)cc2)cs1)NO | neonatal foreskin fibroblasts | cytotoxicity, sulforhodamine B | 72 h | 10400 nM
NC1=C(Cl)C(=O)c2cccc([N+](=O)[O-])c2C1=O | MOLT-3 | cell growth or viability, XTT | – | 6580 nM
O=C1Nc2ccccc2/C1=N/c1ccc(Cl)cc1Br | L02 | cell growth or viability, MTT | 48 h | 25800 nM
COc1ccc(CC[C@H]2OC(=O)[C@@H]3CCCCN3C(=O)C(=O)C(C)(C)COC(=O)C=CCCN(C)C(=O)[C@H](Cc3ccccc3)NC(=O)[C@H](Cc3ccccc3)N(C)C(=O)[C@@H]3CCCN3C(=O)[C@@H](CC(C)C)N(C)C(=O)CCC(=O)Nc3cccc2c3)cc1OC | HUVEC | thymidine uptake, inhibitor | – | > 20000 nM
C[C@H](c1ccccc1)N1C(=O)C2=Nc3ccccc3CN2C1=S | CCRF-CEM | resazurin | 72 h | 520 ± 10 nM
O=C1/C(=N\c2ccc(Cl)cc2Br)c2ccccc2N1C(=O)c1ccccc1 | L02 | cell growth or viability, MTT | 48 h | > 100000 nM
